Published values of several laboratories.
Protocols differ between the studies behind these lines. Numbers after ± are the reported error.

For `CC(=O)Oc1ccccc1C(=O)Nc1ncc([N+](=O)[O-])s1`, the CC50 was 69.7 µM (J2 human intestinal enteroids; cell viability, CellTiter-Glo; 24 h).
The EC50 of `C=C(C[C@H](N)C(=O)O)C(=O)NCc1ccc([N+](=O)[O-])cc1` is reported as 0.339 µM (SK-BR-3; necrosis; 24 h).
The TD50 of `CCCCCCCCCCCCCNCC(=O)N(CCCCN)CC(=O)N(CC(=O)N(CC(=O)N(CCN)CC(N)=O)C1CCCCC1)C1CCCCC1` is reported as 105 ± 3.8 µg/mL (HepG2; cytotoxicity, MTT; 72 h).
Under “minimum haemolytic concentration”, `polymyxin B` is recorded as over 2000 µg/mL (human red blood cells; 4 h, pH 7.4, 25 °C).
The TD50 of `CCCCCCCCCCCCCNCC(=O)N(CC(=O)N(CCCCN)CC(=O)N(CCN)CC(=O)N(CC(N)=O)Cc1ccco1)Cc1ccco1` is reported as 143 ± 94 µg/mL (HepG2; cytotoxicity, MTT; 72 h).
`O=C(Nc1nc2ccccc2[nH]1)c1cc(C(F)(F)F)ccc1C(F)(F)F` — result for “highest non-cytotoxic concentration”: 60 µM (BV-2; 24 h).
`VQWRAIRVRVIR` — result for “minimum haemolytic concentration”: over 2000 µg/mL (human red blood cells; haemolysis; peptide; 4 h, pH 7.4, 25 °C).
The IC50 of `CC1=C(CO)C(=O)O[C@@H]([C@@H](C)[C@H]2CC[C@H]3[C@@H]4C[C@H]5O[C@]56[C@@H](O)C=CC(=O)[C@]6(CO)[C@H]4CC[C@]23C)C1` is reported as 11.6 ± 0.19 µM (B16-F10 melanoma; cell viability, MTS).
With `CCN(CC)Cc1cc(Nc2ccnc3cc(Cl)ccc23)ccc1O` the IC50 was 18.9 µM (HepG2 empty vector control; cell viability, MTT; 48 h).
With `COc1cc(/C=C2\CC/C(=C\c3ccc(O)c(OC)c3)C2=O)ccc1O` the CC50 was 87.4 µM (BHK-21; cell growth or viability, CCK-8; 24 h).
`O=C(Nc1nc2ccccc2[nH]1)C1CCC1`: “highest non-cytotoxic concentration” 60 µM (BV-2; 24 h).
The CC50 of `Cc1nc(C(NC(=O)c2ccc(-c3ccc(Cl)cc3)[nH]2)C2CCCCN2)sc1CO` (mixture of isomers) is reported as about 30 µM (U87/CD4/CCR5; cell growth or viability, XTT; 72 h).
The Papp(B-A) of `NC(=O)N1c2ccccc2C=Cc2ccccc21` is reported as 20.8 ± 2.3 ×10⁻⁶ cm/s (parental MDCK II cells; bidirectional permeability; 1 µM, 2 h, added: cyclosporin A 10 µM).
`CC(C)(C)[C@H](NS(=O)(=O)C(F)(F)F)C(=O)N1C[C@H]2[C@@H]([C@H]1C(=O)N[C@H](C#N)C[C@@H]1CCNC1=O)C2(C)C`: cytotoxicity “not toxic” (Vero E6 cells; concentration not given).
`C[C@@H](NC(=O)[C@]1(Cc2ccccc2)CCN1C(=O)OCc1ccccc1)C(N)=O`: “minimum cytotoxic concentration” over 100 µM (HEL; microscopic cell morphology).
The CC50 of `C[C@H]1[C@H](C)CC[C@]2(C(=O)O)CC[C@]3(C)C(=CC[C@@H]4[C@@]5(C)CC[C@H](O)C(C)(C)[C@@H]5CC[C@]43C)[C@H]12` is reported as 65.3 µM (MARC145; cell growth or viability, MTT; 48 h).
The CC50 of `C[C@@]1(O)[C@H](O)[C@@H](CO)O[C@H]1n1ccc(N)nc1=O` is reported as over 316 µM (J2 human intestinal enteroids; cell viability, CellTiter-Glo; 24 h).
`C[C@H](NC(=O)[C@]1(Cc2ccccc2)CCN1C(=O)OCC1c2ccccc2-c2ccccc21)C(N)=O`: “minimum cytotoxic concentration” 20 µM (HEL; microscopic cell morphology).
With `Cc1cc(C)cc(C(=O)NC(=S)Nc2ccccc2O)c1` the viability was 56% (BHK-21; cell growth or viability, MTT; 100 µM, serum-free).
`CCCCCCCCCCCCCNCC(=O)N(CCCCCC)CC(=O)N(CCCCN)CC(=O)N(CCN)CC(=O)N(CCCCCC)CC(N)=O` gave a TD50 of 61 ± 9 µg/mL (HepG2; cytotoxicity, MTT; 72 h).
`COc1cc(C(=O)O)ccc1Cn1ccc2ccc(NC(=O)c3ccc(C(C)(C)C)cc3)cc21` — result for mRNA level: “decreased” (HepG2; qPCR, refers to: CYP7A1; 10 µM, 12 h, FXR target gene).
`CC(C)CNC(=O)[C@H](C)NC(=O)[C@]1(Cc2ccccc2)CCN1C(=O)OCc1ccccc1`: “minimum cytotoxic concentration” over 100 µM (HEL; microscopic cell morphology).
With `O=C1Nc2ccc(Cl)cc2[C@@](C#CC2CC2)(C(F)(F)F)O1` the expression level was 5.63 ± 1.49 (Caco-2 cells, CAR-transfected; refers to: CYP2B6; 10 µM, 24 h, unit not given; relative to: vector control).
For `Cc1ccc(C(=O)NC(=S)Nc2ccc(C(=O)O)cc2)c(C)c1`, the viability was over 90% (BHK-21; cell growth or viability, MTT; 100 µM, serum-free).
`OC[C@H]1O[C@@H](n2cnc3c(O)nc(-n4cc(-c5ccccc5)nn4)nc32)[C@H](O)[C@@H]1O` — result for “minimum cytotoxic concentration”: 240 µM (HEL; cell morphology).
The TD50 of `CCCCCCCCN(CCCCCCCC)CC(=O)N(CC(=O)N(CCCCN)CC(=O)N(CCN)CC(=O)N(CC(N)=O)C1CCCCC1)C1CCCCC1` is reported as 162 ± 29 µg/mL (HepG2; cytotoxicity, MTT; 72 h).
`OC[C@H]1O[C@@H](n2cnc3c(O)nc(-n4cc(-[c-]5cccc5)nn4)nc32)C[C@@H]1O.[Fe+2].c1cc[cH-]c1` — result for “minimum cytotoxic concentration”: over 200 µM (HEL; cell morphology).
`C[C@H](NC(=O)[C@]1(Cc2ccccc2)CCN1C(=O)OCc1ccccc1)C(=O)NC1CCCCC1`: “minimum cytotoxic concentration” over 100 µM (HEL; microscopic cell morphology).
`Nc1ccn(C[C@@H](CO)OCP(=O)(O)O)c(=O)n1` gave a CC50 of 110 µM (HFF primary foreskin fibroblasts; cell viability, CellTiter-Glo).
For `CCCCCCCCCCCCCNCC(=O)N(CC(=O)N(CCCCN)CC(=O)N(CCN)CC(=O)N(CC(N)=O)Cc1ccc(F)cc1)Cc1ccc(F)cc1`, the TD50 was 150 ± 7 µg/mL (HepG2; cytotoxicity, MTT; 72 h).
The viability of `COc1ccc(C(=O)NC(=S)Nc2ccc(C(=O)O)cc2)cc1OC` is reported as 59% (BHK-21; cell growth or viability, MTT; 100 µM, serum-free).
`O=C(Nc1nc2ccccc2[nH]1)c1ccc(Cl)c(Cl)c1` — result for “highest non-cytotoxic concentration”: 100 µM (BV-2; 24 h).
Under “minimum cytotoxic concentration”, `C[C@H](NC(=O)[C@]1(Cc2ccccc2)CCN1C(=O)OCc1ccccc1)C(=O)N(C)C` is recorded as over 100 µM (HEL; microscopic cell morphology).
`Cc1cc(C)cc(C(=O)Nc2cc(Br)cc(C(F)(F)F)c2)c1` gave a viability of 48% (BHK-21; cell growth or viability, MTT; 100 µM, serum-free).
For `CC/C(=C(\c1ccccc1)c1ccc(OCCN(C)C)cc1)c1ccccc1`, the EC50 was over 316 µM (SK-BR-3; necrosis; 24 h).
Under “minimum cytotoxic concentration”, `C[C@H](NC(=O)[C@]1(Cc2ccccc2)CCN1C(=O)OCc1ccccc1Cl)C(N)=O` is recorded as over 100 µM (HEL; microscopic cell morphology).
For `COC(=O)c1[nH]cc2c1[C@@]1(CN(C)c3ccccc31)c1[nH]c3ccc(Cl)cc3c1-2` (racemic), the CC50 was over 50 µM (HepG2; cytotoxicity).
`O=C(Nc1nc2ccccc2[nH]1)c1cccc(C(F)(F)F)c1`: “highest non-cytotoxic concentration” 200 µM (BV-2; 24 h).
`Cc1c(O)cc(C[C@]23C[C@H](C[C@H](C)O2)c2c4c(c(O)c(C)c2O3)CO[C@@]2(C4)C[C@@H](O)C[C@H](C)O2)c(C=O)c1O` gave an IC50 of 14.3 µM (NCI-H1975; cell growth or viability).
The TD50 of `CCCCCCCCCCCCCNCC(=O)N(CC(=O)N(CCCCN)CC(=O)N(CCN)CC(=O)N(CC(N)=O)C(C)C)C(C)C` is reported as over 200 µg/mL (HepG2; cytotoxicity, MTT; 72 h).
For `CCCCOc1c2cc(C(=O)Nc3cc(C(=O)O)cc(C(=O)O)c3)cc1Cc1cc(C(=O)Nc3cc(C(=O)O)cc(C(=O)O)c3)cc(c1OCCCC)Cc1cc(C(=O)Nc3cc(C(=O)O)cc(C(=O)O)c3)cc(c1OCCCC)Cc1cc(C(=O)Nc3cc(C(=O)O)cc(C(=O)O)c3)cc(c1OCCCC)C2`, the IC50 was over 50 µM (MT2; cell growth or viability).
`Cc1ccc(C(=O)Nc2cccc(C(=O)O)c2)c(C)c1` has a viability of over 90% (BHK-21; cell growth or viability, MTT; 100 µM, serum-free).
Under “minimum cytotoxic concentration”, `C[C@H](NC(=O)[C@]1(Cc2ccccc2)CCN1C(=O)Oc1ccccc1)C(N)=O` is recorded as over 100 µM (HEL; microscopic cell morphology).
`CCCCCCN(CCCCCC)CC(=O)N(CC(=O)N(CCCCN)CC(=O)N(CCN)CC(=O)N(CC(N)=O)C1CCCCC1)C1CCCCC1` gave a TD50 of over 200 µg/mL (HepG2; cytotoxicity, MTT; 72 h).
The EC50 of `C=C(C[C@H](N)C(=O)O)C(=O)N1CCCCC1` is reported as 0.0724 µM (SK-BR-3; necrosis; 24 h).
`CN1CCC2(CC1)C/C(=N\N=C\c1ccc(O)cc1)c1ccccc1O2` has an IC50 of 2.37 ± 0.09 µM (PC-3; cell growth, MTT; 48 h).
`CONC(=N)c1ccc(-c2ccc(-c3ccc(C(=N)NOC)cn3)o2)cc1` gave a viability of 16% (KLE; cell growth or viability; 50 µM, 72 h).
`Nc1nc(O)c2ncn(COC(CO)CO)c2n1` — result for “minimum cytotoxic concentration”: over 350 µM (HEL; cell morphology).
`C=C(C[C@H](N)C(=O)O)C(=O)NCc1ccccc1` has an EC50 of 0.0977 µM (SK-BR-3; necrosis; 24 h).
For `COc1ccc(-c2cn(-c3nc(O)c4ncn([C@H]5C[C@H](O)[C@@H](CO)O5)c4n3)nn2)cc1`, “minimum cytotoxic concentration” read over 240 µM (HEL; cell morphology).
For `O=C(Nc1nc2ccccc2[nH]1)c1ccc([N+](=O)[O-])cc1`, “highest non-cytotoxic concentration” read 300 µM (BV-2; 24 h).
`CCCCCCCCCCCCCNCC(=O)N(CC(=O)N(CCCCN)CC(=O)N(CCN)CC(=O)N(CC(N)=O)Cc1ccc(I)cc1)Cc1ccc(I)cc1` gave a TD50 of 72 ± 24 µg/mL (HepG2; cytotoxicity, MTT; 72 h).
`C[C@H](NC(=O)[C@]1(Cc2ccccc2)CCN1S(=O)(=O)c1ccc2ccccc2c1)C(N)=O` — result for “minimum cytotoxic concentration”: over 100 µM (HEL; microscopic cell morphology).
`C=C(C[C@H](N)C(=O)O)C(=O)NC1CC1` has an EC50 of 275 µM (SK-BR-3; necrosis; 24 h).

For quick reference, copied from above:
`OC[C@H]1O[C@@H](n2cnc3c(O)nc(-n4cc(-[c-]5cccc5)nn4)nc32)C[C@@H]1O.[Fe+2].c1cc[cH-]c1` — result for “minimum cytotoxic concentration”: over 200 µM (HEL; cell morphology).
`C[C@H](NC(=O)[C@]1(Cc2ccccc2)CCN1C(=O)OCc1ccccc1)C(=O)NC1CCCCC1`: “minimum cytotoxic concentration” over 100 µM (HEL; microscopic cell morphology).
`Nc1ccn(C[C@@H](CO)OCP(=O)(O)O)c(=O)n1` gave a CC50 of 110 µM (HFF primary foreskin fibroblasts; cell viability, CellTiter-Glo).
For `CCCCCCCCCCCCCNCC(=O)N(CC(=O)N(CCCCN)CC(=O)N(CCN)CC(=O)N(CC(N)=O)Cc1ccc(F)cc1)Cc1ccc(F)cc1`, the TD50 was 150 ± 7 µg/mL (HepG2; cytotoxicity, MTT; 72 h).
